Published values pooled from the literature.
Compare with care: the assays were run in different laboratories. ± gives the spread as reported.

CCCCCC(=O)OCn1cc(F)c(=O)[nH]c1=O  half-life (Sprague-Dawley rat, plasma; 80 µg/mL, 37 °C): 30 ± 0.6 min
Cc1ccc(Oc2ccc(-c3ccn4c(CC5CC5)nnc4c3C(F)(F)F)cc2F)c(C)n1  brain concentration (rat Sprague Dawley male, brain; subcutaneous, 10 mg/kg, 2 h): 370 ng/g
O=C[C@H](C[C@@H]1CCNC1=O)NC(=O)[C@H](CC1CCCCC1)NS(=O)(=O)c1ccc(Cl)cc1  therapeutic index (feline coronavirus; CRFK, FIPV-1146; baseline: CC50 over EC50): > 385
O=C(O)COc1ccccc1/C=N/NC(=O)CNc1ccc(Cl)cc1  seizure severity (Racine scale 0-5; male mice, pilocarpine-induced seizures; oral, 20 mg/kg, 2 h after pilocarpine, unit not given, together with: pilocarpine 300 mg/kg i.p.; higher = more severe): 2.4 ± 0.52
CC[C@H](C)[C@@H]1NC(=O)[C@H](CC(C)C)NC(=O)[C@H](Cc2ccccc2)NC(=O)[C@H](Cc2ccccc2)NC(=O)[C@@H]2CCCN2C(=O)[C@@H]2CCCN2C(=O)[C@H](C(C)C)NC(=O)[C@H](CC(C)C)NC(=O)[C@H]([C@@H](C)CC)NC1=O  cytotoxicity (MCF7; LDH release; 200 µg/mL, 48 h): 7%
O=C(O)COc1ccc(Br)cc1C=NNC(=O)Cc1ccccc1 (mixture of isomers)  seizure latency increase (item: latency to stage 3; male mice, pilocarpine-induced seizures; oral, 20 mg/kg, dosed 30 min before pilocarpine, together with: pilocarpine 300 mg/kg i.p.; baseline: pilocarpine vehicle group): 189%
CCCCn1ccn2c(-c3ccc(NC4CCOCC4)c(Cl)c3)c(C)nc2c1=O  metabolized fraction (rat liver microsomes; 5 µM, 15 min): 71%
O=C[C@H](C[C@@H]1CCNC1=O)NC(=O)[C@H](CC1CCCCC1)NC(=O)OCc1ccccc1  CC50 (CRFK; cell growth or viability; 36 h): > 150 µM
COc1ccc(CNc2ccc(-c3ccn4c(CC5CC5)nnc4c3C(F)(F)F)cc2F)cn1  brain concentration (rat Sprague Dawley male, brain; subcutaneous, 10 mg/kg, 1 h): 730 ng/g
CC[C@H](C)[C@@H]1NC(=O)[C@H](C(C)C)NC(=O)[C@H](Cc2ccccc2)NC(=O)[C@H](Cc2ccccc2)NC(=O)[C@@H]2CCCN2C(=O)[C@@H]2CCCN2C(=O)[C@H]([C@@H](C)CC)NC(=O)[C@H](CC(C)C)NC(=O)[C@H](CCSC)NC1=O  cytotoxicity (SK-BR-3; LDH release; 25 µg/mL, 24 h): 6%
O=C(N[C@@H](CC1CCCCC1)C(=O)N[C@@H](C[C@@H]1CCNC1=O)C(O)S(=O)(=O)O)OCc1cccc(Cl)c1 (some centres unmarked)  therapeutic index (feline coronavirus; CRFK, FIPV-1146; baseline: CC50 over EC50): 2760
